# Experimental data from different studies.
# Compare with care: the assays were run in different laboratories. “And” joins repeats or separate records; there may be more than shown. ± marks the error that the study gave.
Structure (SMILES),target or system,assay,test system,setting,how to read,endpoint,value
C[C@H]1C=C(Cc2ccccc2)C(=O)O1,,,water/sediment,"20 °C, whole system, longest, aerobic dark",,DT50,8.77 days
C[Si](C)(C)O[Si](C)(C)O[Si](C)(C)C,,,,"1.9 to 6.0 µg/L, 35.0 °C",,log KAW,3.24
CNC(=O)c1ccc(-c2cnc3ncc(Cc4ccc5ncccc5c4)n3n2)cc1F,,,human severe hepatic impairment,"oral, 200 mg single dose, covariate-adjusted geometric mean",,AUC(0-inf),9130 ng·h/mL
O=C(N[C@H](Cc1c[nH]c2ccccc12)C(=O)Nc1ccncc1)c1ccc(-c2ccc(F)c(C(F)(F)F)c2)cc1F,,,"Swiss Webster mouse, female, fat","oral, 50 mg/kg, 2 h, 20% HPβCD vehicle",,concentration,80 nM
Cc1ccc(N(C)C(=O)/C=C/c2ccco2)cc1,,cold plate test,mice,"oral, 30 mg/kg single, 15 min",,licking latency,19.1 ± 0.5 s
C[C@@H](N)C1CCN(S(=O)(=O)c2cccc3cnccc23)CC1,,,healthy volunteers,"150 mg single dose, fed",,participants with TEAEs,40%
CC[C@H](C)[C@H](NC(=O)[C@H](Cc1ccccc1)NC(=O)[C@H](CCC(=O)O)NC(=O)[C@H](CCCCNC(=O)COCCOCCNC(=O)COCCOCCNC(=O)CC[C@H](NC(=O)CCCCCCCCCCCCCCCCC(=O)O)C(=O)O)NC(=O)[C@H](C)NC(=O)[C@H](C)NC(=O)[C@H](CCC(N)=O)NC(=O)CNC(=O)[C@H](CCC(=O)O)NC(=O)[C@H](CC(C)C)NC(=O)[C@H](Cc1ccc(O)cc1)NC(=O)[C@H](CO)NC(=O)[C@H](CO)NC(=O)[C@@H](NC(=O)[C@H](CC(=O)O)NC(=O)[C@H](CO)NC(=O)[C@@H](NC(=O)[C@H](Cc1ccccc1)NC(=O)[C@@H](NC(=O)CNC(=O)[C@H](CCC(=O)O)NC(=O)C(C)(C)NC(=O)[C@@H](N)Cc1cnc[nH]1)[C@@H](C)O)[C@@H](C)O)C(C)C)C(=O)N[C@@H](C)C(=O)N[C@@H](Cc1c[nH]c2ccccc12)C(=O)N[C@@H](CC(C)C)C(=O)N[C@H](C(=O)N[C@@H](CCCNC(=N)N)C(=O)NCC(=O)N[C@@H](CCCNC(=N)N)C(=O)NCC(=O)O)C(C)C,,12-lead Holter ECG,healthy humans,"subcutaneous, 1.5 mg once weekly, 36 h, steady state",relative to: placebo,QTcB change from baseline,6.4 ms
C=CCN1CC(=O)N2[C@@H](Cc3ccc(O)cc3F)C(=O)N(Cc3cccc(N4CC(N5CCN(CC)CC5)C4)n3)C[C@@H]2N1C(=O)NCc1ccccc1,,,advanced solid tumour patients,"oral, 80 mg twice daily, grade ≥3, dose-escalation",,treatment-related vomiting,0%
C[C@@H](O)CCOC(=O)C[C@@H](C)O,,,human,"oral drink, dose not given, 120 min post dose, mean",,heart rate,75 beats/min
Cc1c(-c2ccc(N3CCc4cccc(C(=O)Nc5nc6ccccc6s5)c4C3)nc2C(=O)O)cnn1CC12CC3(C)CC(C)(C1)CC(OCCNCC[C@H](O)CO)(C3)C2,,,"beagle dog, male, anaesthetised","intravenous infusion, 0.01 mg/kg/min, 150 min",relative to: baseline,mean arterial pressure change,9 mmHg
COCc1cc(C(=O)Nc2cc([C@H]3CC[C@@H](OC(=O)NC(C)C)C3)[nH]n2)n(C)n1,,,"OVCAR-3 xenograft, NOD/SCID gamma mice, plasma","oral, 75 twice daily, tumour growth inhibition study",,Tmax,7.5 h
Cc1cc(Nc2ccc(S(F)(F)(F)(F)F)cc2)n2nc(C(C)(F)F)nc2n1,,,Plasmodium vivax malaria patients,"oral, 800 mg",,adverse event abdominal pain,0%
Cc1ccc([C@@H]2O[C@H](CO)[C@@H](O)[C@H](O)[C@H]2O)cc1Cc1ccc(-c2ccc(F)cc2)s1,,,Japanese type 2 diabetes patients,"400 mg, day 5, 24 h urine collection",relative to: baseline,urinary potassium excretion change,-2.98 mEq
CCc1cc(C(=O)NC)c2nccc(N3CCc4c(cc(Cn5ccnc5)cc4-c4cn(C)nc4C(F)(F)F)C3=O)c2c1,,,Sprague Dawley rat,"oral, 100 mg/kg once daily, day 3, 7-day toxicology study",relative to: day 1,body weight change,5.2%
CCCc1cc(C)[nH]c(=O)c1CNC(=O)c1cc(-c2ccc(N3CCN(C(C)C)CC3)nc2)cc2c1cnn2C(C)C,HBL-1,,,"0.5 µM, 120 h",,viability,130%
OB1NN=Cc2ccccc21,,"stability, UPLC-MS",diluted serum,"1 day, 37 °C",higher = more compound remaining,peak area,311000 a.u. and 304000 a.u. and 307000 a.u.
CCCCOC(=O)N1CCN(C(=O)[C@H](CP(=O)(O)O)NC(=O)c2cc(N3CC[C@H](OC)C3)nc(-c3ccccc3)n2)CC1,,measured: Potassium,"human, blood","8 mg, 24 h",,change from baseline,0.12 ± 0.31 mmol/L
C=CC(=O)Nc1cc(Nc2nccc(Nc3cc(Cl)c(F)cc3C(C)(C)O)n2)c(OC)cc1N1CC[C@@H](N(C)C)C1,,,tumour-bearing mice,"oral, dose not given, twice daily",,body weight loss,< 15%
O=C(O)CCCOc1ccc([18F])cc1-c1cc(-c2ccccc2C(F)(F)F)n(-c2ccccc2)n1,,gamma counting,"male ddY mice, heart","intravenous, 2.1 MBq, 30 min",,radioactivity uptake,10.2 ± 2.73 SUV
CCn1cc(C(=O)N2CCOCC2)c(=O)c2cc(NC3Cc4ccccc4C3)cnc21,,,"human, fed","oral tablet, 300 mg single dose, arithmetic mean",,AUC(0-last),13800 ng·h/mL
CCN1CCN(Cc2ccc(NC(=O)c3ccc(C)c(NC(=O)c4cncc(-c5cccs5)c4)c3)cc2C(F)(F)F)CC1,,LC-MS/MS,"C57BL/6 mouse, plasma","intraperitoneal, 20 mg/kg single dose, 0.25 h",,plasma concentration,621 ng/mL and 581 ng/mL and 639 ng/mL
N#Cc1ccc2c(c1)[C@H]1CCCN(C(=O)c3ccc4[nH]cnc4c3)[C@H]1C2,,,human,"80 mg, day 7",,median ACTH level,7.6 pmol/L
O=C(OC(C(F)(F)F)C(F)(F)F)N1CCN(Cc2cccc(Oc3ccccc3)c2)CC1,,PET blocking study,"rhesus monkey, brain CB","0.3 mg/kg, compound pretreatment, together with: [18F]T-401 tracer",,Ktrans,0.0306 min⁻¹
C[C@@H](Nc1cc(F)cc(F)c1)c1cc(C(=O)N(C)C)cc2c(=O)cc(N3CCOCC3)oc12,,measured: Dehydration,advanced solid tumour patients,"oral, dose not given, dose expansion",,related serious adverse events,5%
C1=C/COCc2cc(ccc2OCCN2CCCC2)Nc2nccc(n2)-c2cccc(c2)COC/1,,,"BALB/c mice, rhEPO-induced polycythemia","120 mg/kg, day 3",,body weight,19.3 g and 18.1 g and 18.6 g and 19.1 g and 20.3 g and 18.5 g
CCOc1c([C@H](C)n2nc(C)c3c(N)ncnc32)cc(Cl)c(F)c1[C@@H]1CNC(=O)C1,,measured: ΔQTcF ≤ 30 ms,previously treated B-cell malignancy,"oral, dose not given, baseline QTcF ≤450 ms, all doses",,share of ECG observations,96.9%
Cc1ccc(C(=O)N(CCCN)C(c2nc3snc(C)c3c(=O)n2Cc2ccccc2)C(C)C)cc1 (stereo not shown),,,human patients,"intravenous, 7 mg/day",,grade ≥3 hypokalemia patients,0%
CC(C)(C)NCC(O)c1cc(O)cc(O)c1 (stereo not shown),,equilibrium dialysis,"rat, lung homogenate",,,fraction unbound,0.71
O=C(O)CCC(=O)O.[2H]C([2H])([2H])Oc1cc(C)c2[nH]ccc2c1CN1CC[C@@H](C2CC2)C[C@H]1c1ccc(C(=O)O)cc1,,,healthy Chinese subjects,"50 mg, single ascending dose",,TEAE elevated blood triglycerides,16.7%
Cc1ccc2c(c1)C(=O)[C@]1(O)CCN(c3ccc4nc(C)ccc4c3)C1=N2,,,mouse,"subcutaneous, 10 mg/kg, 30 min",relative to: brain over plasma,tissue/plasma ratio,1.5
CCCCCCCOc1ccc(CCC(N)(CO)CO)cc1C(F)(F)F.Cl,,,healthy men,"oral, 0.125 mg, day 21",,renal clearance,0.0727 mL/min
Cn1cncc1-c1c(F)cncc1NC(=O)c1c(N)nn2cc(F)cnc12,,,"patients, advanced solid tumours","oral, 180 mg once daily, 2 weeks on 1 week off",relative to: patients,grade ≥2 adverse events,25%
Cc1ccc(Sc2ccccc2N2CCNCC2)c(C)c1,,measured: thermal burn,healthy adult men,"oral, 10 mg daily, 12 days",,participants with TEAE,0%
C[C@@H]1OC(=O)[C@H](Cc2ccccc2)[C@H]1O,,aerobic dark soil incubation,clay loam soil,"20 °C, modelling endpoint",,DT50,2.31 days
O=C1CC[C@H](N2Cc3cc(N4CCN(CC5CCN(c6ccc([C@@H]7c8ccc(O)cc8CC[C@@H]7c7ccccc7)cc6)CC5)CC4)ccc3C2=O)C(=O)N1,,,human,"oral, 200 mg, together with: rosuvastatin 10 mg",,participants with muscle spasms,8.3%
CN1CCC[C@H](CN2c3ccccc3Sc3ccccc32)C1.Cl,,,"Wistar rat female, lymph node","oral, 16 mg/kg",,AUC(0-t),50500 ng·h/mL
COc1ncc(-c2nc3c(n2C(C)C)[C@H](c2ccc(Cl)cc2)N(c2cc(Cl)cn(C)c2=O)C3=O)c(OC)n1,,,"human patients, plasma","oral, 100 mg, high-dose arm, cycle 1 day 1",,median half-life,17.1 h
COc1cc(Nc2ncc3c(n2)-c2ccc(Cl)cc2C(c2c(F)cccc2OC)=NC3)ccc1C(=O)O,,"measured: Tracheitis, grade 4","cancer patients, phase 1/2","oral, dose not given, together with: pembrolizumab",,patients with adverse event,4%
CC(C)C(=O)O[C@H]1[C@H](C)OC(=O)[C@@H]1Cc1ccccc1,,,"Staffordshire loam sediment, aerobic dark",20 °C,,DT50 whole system,0.58 days
Cc1cc(NC2CCN(C(=O)OC3CCN(C(=O)/C=C/CN(C)C)C3)CC2)n2ncc(C(C)C)c2n1 (stereo not shown),,"Phase I dose escalation CTCAE v4.0, measured: small intestinal obstruction",patients with advanced solid tumours,"dose not given, QD dosing grade 3 or higher",,patients with adverse event,5%
CNCc1ccc(-c2[nH]c3cc(F)cc4c3c2CCNC4=O)cc1,,,human patients,"oral, 840 mg twice daily, all grades",,headache incidence,33.3%
CNc1ccc(-c2nc3ccc(O)cc3s2)cc1 [carbon-11 labelled],,ex vivo biodistribution,"B6SJL mouse, normal, bone","intravenous, 30 min",,SUV,0.184 ± 0.042
C=CC(=O)N(C)CCOc1c(N)ncnc1-c1cc(F)cc(NC(=O)c2ccc(C3CC3)cc2F)c1C,,,"human, whole blood","oral, 15 mg, single ascending dose",,apparent clearance CL/F,511 L/h
COc1cc(N2CCC(N3CCN(C)CC3)CC2)ccc1Nc1ncc(Cl)c(Nc2ccccc2P(C)(C)=O)n1,,,"nude mice, NCI-H3122 xenograft","intraperitoneal, 10 mg/kg every other day, day 13",,body weight,22.1 g and 23.8 g and 24.8 g and 23.6 g and 25 g
O=C(Nc1nc2cccc(-c3ccc(CN4CCS(=O)(=O)CC4)cc3)n2n1)C1CC1,,measured: blood and lymphatic disorders,rheumatoid arthritis patients,"oral, 150 mg once daily, 4 weeks, any relatedness",,treatment-emergent adverse events,0%
CC(C)(C(=O)N1CCOc2c(C#N)cncc2C1)C(F)F,,measured: skin irritation,"healthy humans, both sexes","oral, 10 mg single dose",,subjects with TEAE,0%
CCc1c(-c2ccccc2)c(-c2ccccc2)nn1-c1ccccc1-c1cccc(OCC(=O)O)c1,,,Sprague-Dawley rat,oral,,Vz/F observed,7.43 L/kg and 8.11 L/kg and 8.61 L/kg
CCN1CCN(C(=O)c2ccc(-n3nc(-c4cccnc4)c4c3-c3sc(NC(C)=O)nc3CC4)cc2)CC1,,,NSG mice,"dose not given, day 4",,body weight,15 g and 19 g and 18.8 g and 18.7 g
NC1(C(=O)N[C@@H](CCO)c2ccc(Cl)cc2)CCN(c2nc[nH]c3nccc2-3)CC1,,"LC-MS/MS, non-compartmental","human patients, plasma","160/480 mg cohort, cycle 2, median, together with: enzalutamide",,Tmax,2 h
Cc1cccc(CNC(=O)c2cn(CCNC(=O)c3ccccc3S)c3cc4c(cc3c2=O)OC(F)(F)O4)n1,,,"Sprague-Dawley rat, male, plasma","intravenous, 20 mg/kg of parent drug",,AUC(0-t),1490 ± 125 ng·h/mL
CC#CC(=O)N1CC[C@@H](n2c(=O)n(-c3ccc(Oc4ccccc4)cc3)c3c(N)ncnc32)C1,,,"human, fasting, plasma","oral, 160 mg once daily, cycle 1 day 1",,AUC(0-24h),3290 ± 555 ng·h/mL
C/C(=N\NC(=O)Cn1c(-c2ccc(S(C)(=O)=O)cc2)nc2cc(Cl)ccc21)c1ccc(Cl)cc1,,,"rat, stomach","concentration not given, 4 h",relative to: indomethacin,ulcer index,7.6%
Cc1cn([C@H]2C[C@H]([18F])[C@@H](CO)O2)c(=O)[nH]c1=O,,"PET/CT, bi-exponential fit","Sprague-Dawley rat, nasal cavity",intranasal,relative to: dose,nasal clearance amplitude B,11.6%
CCN1/C(=C/C(C)=O)Sc2ccc(F)cc21,,,cynomolgus monkey,"oral, 100 mg/kg, 4 h post-dose",,QRS duration,36 ± 1 ms
N[C@@H](C[18F])C(=O)O,,PET imaging,"female athymic nude mice, U-87 MG xenograft","intravenous, 15 min",relative to: tumour over muscle,tumour-to-muscle ratio,1.77 ± 0.44

# Excerpt of the above:
Structure (SMILES),target or system,assay,test system,setting,how to read,endpoint,value
C/C(=N\NC(=O)Cn1c(-c2ccc(S(C)(=O)=O)cc2)nc2cc(Cl)ccc21)c1ccc(Cl)cc1,,,"rat, stomach","concentration not given, 4 h",relative to: indomethacin,ulcer index,7.6%
Cc1cccc(CNC(=O)c2cn(CCNC(=O)c3ccccc3S)c3cc4c(cc3c2=O)OC(F)(F)O4)n1,,,"Sprague-Dawley rat, male, plasma","intravenous, 20 mg/kg of parent drug",,AUC(0-t),1490 ± 125 ng·h/mL
C[C@@H](N)C1CCN(S(=O)(=O)c2cccc3cnccc23)CC1,,,healthy volunteers,"150 mg single dose, fed",,participants with TEAEs,40%
Cc1ccc(Sc2ccccc2N2CCNCC2)c(C)c1,,measured: thermal burn,healthy adult men,"oral, 10 mg daily, 12 days",,participants with TEAE,0%
COc1ncc(-c2nc3c(n2C(C)C)[C@H](c2ccc(Cl)cc2)N(c2cc(Cl)cn(C)c2=O)C3=O)c(OC)n1,,,"human patients, plasma","oral, 100 mg, high-dose arm, cycle 1 day 1",,median half-life,17.1 h
CCn1cc(C(=O)N2CCOCC2)c(=O)c2cc(NC3Cc4ccccc4C3)cnc21,,,"human, fed","oral tablet, 300 mg single dose, arithmetic mean",,AUC(0-last),13800 ng·h/mL
